Measured values pooled from the literature.
Lines come from different studies, so protocols differ. ± marks the error that the study gave. Values after ≈ are worked out from the molar mass of the structure shown.

CCCC(CCC)NC(=O)c1ccc(OS(=O)(=O)O)c(OC)c1 — AUC(0-last) ratio (female Sprague-Dawley rats, plasma; oral, 50 mg/kg of parent drug; relative to: 50 over 20 mg/kg dose): 2.43
NS(=O)(=O)c1ccc(N2N=C(C(F)(F)F)CC2c2ccc(F)cc2F)cc1 (centres unmarked) — Cmax (beagle dog, plasma; oral, 4 mg/kg, single dose): 0.872 µg/mL
C[C@H](NC(=O)COC(=O)[C@H](C)NC(=O)CO)C(=O)O — depolymerization half-life (water; pH 3, 65 °C): 27.9 h
CC(=O)N[C@@H](CCCCN)C(=O)N[C@@H](CO)C(=O)NCC(=O)N[C@@H](CO)C(=O)NCC(=O)N[C@@H](CCC(N)=O)C(=O)N[C@@H](CCC(N)=O)C(=O)N[C@@H](CCCCN)C(=O)N[C@@H](Cc1ccccc1)C(=O)N[C@@H](CCC(N)=O)C(=O)N[C@@H](Cc1ccccc1)C(=O)N[C@@H](CCC(N)=O)C(=O)N[C@@H](Cc1ccccc1)C(=O)N[C@@H](CCC(=O)O)C(=O)N[C@@H](CCC(N)=O)C(=O)N[C@@H](CCC(N)=O)C(N)=O — nanofiber width (negative-stain TEM; 1× PBS; 0.2 mM): 8.51 ± 1.12 nm
CC(=O)OC[C@H]1O[C@@H](Sc2sc(C(=O)c3ccc(Br)cc3)c(N)c2-c2nc3ccccc3s2)[C@H](OC(C)=O)[C@@H](OC(C)=O)[C@@H]1OC(C)=O — maximum nontoxic concentration (DMEM; 72 h, coxsackievirus B4 assay host cells): 100 µg/mL
O=C(O)C1CN(Cc2ccc(-c3noc(-c4ccc(OCC[18F])c(C(F)(F)F)c4)n3)cc2)C1 — tracer uptake (rat, pancreas; intravenous, 5 min): 0.755 %ID/g
Cn1c(=O)oc2ccc(-c3ccc(CC(C#N)NC(=O)C4CNCCCO4)c(F)c3)cc21 (centres unmarked) — skin exfoliation incidence (human; oral, 40 mg once daily, treatment-related AE, multiple ascending dose): 0%
C#CCOc1ccc(/C=C2\SC(=O)N(CC(=O)NCc3ccccc3)C2=O)cc1 — Kirkwood-Buff integral G1,3 (inverse Kirkwood-Buff integrals; binary solvent mixture; 298.15 K, mole fraction x1 0.75): -259 cm³/mol
CCCC[C@H](NC(=O)CNC(=O)CNC(=O)CN1CCN(CC(=O)O)CCN(CC(=O)O)CC1)C(=O)N[C@H]1CC(=O)NCCCC[C@@H](C(N)=O)NC(=O)[C@H](Cc2c[nH]c3ccccc23)NC(=O)[C@H](CCCNC(=N)N)NC(=O)[C@@H](Cc2ccccc2)NC(=O)[C@H](Cc2c[nH]cn2)NC1=O [gallium-67 labelled] — tissue uptake (female C57 mice, B16/F1 melanoma, pancreas; intravenous, 0.037 MBq, 0.5 h): 1.03 ± 0.16 %ID/g
Cc1ccc(NCCNc2ccc(F)c(Cl)c2)cc1S(=O)(=O)N1CCOCC1 — kinetic solubility (water): 39 µM (≈ 16.7 µg/mL)
COc1cc(C)c(Cc2ccc(O)cc2)cc1[C@@H]1S[C@H](CO)[C@@H](O)[C@H](O)[C@H]1O — Tmax (Japanese T2DM patients, plasma; 1 mg luseogliflozin, day 7, once daily): 2.44 ± 1.32 h
CC(C)c1cnc(-c2cc(Cl)ccc2F)cc1Nc1ccncc1C(=O)NC(CO)CO — patients with related SAE (refers to: intracranial tumour haemorrhage; human patients; oral, dose not given, grade 5): 0%
N=C(N)NCCC[C@@H]1NC(=O)[C@H](Cc2c[nH]c3ccccc23)NC(=O)[C@@H](CC2CCCCC2)NC(=O)[C@@H]2CCCN2C(=O)[C@@H](NC(=O)CCc2ccccc2)CCCNC1=O — apparent peripheral volume (V2/F) (C57BL/6J mice, brain; oral, 1 mg/kg, two-compartment model): < 0.001 µg/(ng/g)
Cc1noc(C)c1Cn1cc(N2C(=O)CN(Cc3cccc(OS(=O)(=O)O)c3)C2=O)cn1 — AUC(0-last) (rat Sprague-Dawley male, plasma; oral, 30 mg/kg of parent drug): 32 µg·h/mL
CC/C=C\C/C=C\C/C=C\C/C=C\C/C=C\CCCCOC(CC)C(=O)O (centres unmarked) — radioactivity concentration ([14C] label; male Wistar rat, kidney medulla; oral, 100 mg/kg, 2 h): 148 µg equiv/g
C[Si](C)(C)C[C@H](CN)CC(=O)O — performance time (neuromuscular coordination; Wistar rat male; oral, 100 mg/kg, 1 h): 180 s
CCCC[C@H](NC(C)=O)C(=O)N[C@H]1CC(=O)NCCCC[C@@H](C(=O)N[C@@H](C(=O)N2CCC[C@@H]2C(N)=O)C(C)C)NC(=O)[C@H](Cc2c[nH]c3ccccc23)NC(=O)[C@H](CCCN=C(N)N)NC(=O)[C@@H](Cc2ccc3ccccc3c2)NC(=O)[C@@H]2CCCN2C1=O — volume of distribution (Beagle dog, both sexes, plasma; subcutaneous, once daily, 2.25 mg/kg, day 5): 2410 ± 327 mL
CC(C)CCCC(C)CCCC(C)CCOC1O[C@H](CO)[C@@H](O)[C@H](O)[C@H]1O (some centres unmarked) — surface tension at CMC (drop shape tensiometry; water; room temperature): 27.1 mN/m
Cc1[nH]c(/C=C2\C(=O)Nc3ccc(F)cc32)c(C)c1NC(=O)CCN1CCN(C)CC1 — AUC(0-inf) (Beagle dog, both sexes, plasma; oral, 3 mg/kg): 0.852 ± 0.23 µg·h/mL
O=Cc1ccc(C2CCCCO2)o1 (centres unmarked) — equilibrium solubility (UV; 40% PEG 400 in water; 48 h, 25 °C): ~13.5 mg/mL
COc1cc(/C=C/C(=O)O)ccc1O — freeze-thaw stability (human plasma; 2 ng/mL, 3 cycles): 97.8 ± 4.05%
Cc1cc2c(cc1C1(c3ncc(C(=O)O)cn3)CC1)C(C)(C)CCC2(C)C — LDL level (Sprague-Dawley rat, male, plasma; oral, 100 mg/kg, 1 h, sesame oil vehicle): 27 ± 3.5 mg/dL
COC(=O)C1OC(Oc2c(-c3ccccc3)oc3cc(O)c(O)c(O)c3c2=O)C(O)C(O)C1O (centres unmarked) — organ weight (BALB/c mouse, kidney; 1 mg/kg): 1.4 ± 0.1 g
C/C=C/CNC(=N)NCCCCCCCCN1CCCc2ccccc2COc2ccccc2CNC(=N)NC1=O — membrane retention (PAMPA; egg phosphatidylcholine in dodecane; 500 µM, 5 h, pH 7.4, room temperature): 55.3%
CC(C)C[C@@H](NC(=O)[C@H](NC(=O)[C@H]1CCCN1)[C@H](C)O)C(=O)N[C@H](Cc1c[nH]cn1)C(=O)N[C@@H](C(=O)N[C@H](Cc1c[nH]cn1)C(=O)N[C@H](CC(N)=O)C(=O)N[C@H](CCCNC(=N)N)C(=O)N[C@H](CCCNC(=N)N)C(=O)N[C@H](CCCNC(=N)N)C(=O)N[C@H](CCCNC(=N)N)C(=O)N[C@H](CCCNC(=N)N)C(N)=O)[C@H](C)O — MRT(0-inf) (Beagle dog, CSF; oral, 50 mg/kg): 97 ± 47 h
CC(C)C[C@H](NC(=O)C[C@H](O)[C@H](CC(C)C)NC(=O)[C@H](Cc1c[nH]cn1)NC(=O)CNC(=O)[C@@H](NC(=O)[C@H](C)NC(=O)[C@H](Cc1c[nH]c2ccccc12)NC(=O)[C@H](CCC(N)=O)NC(=O)[C@@H](Cc1ccccc1)NC(=O)CCNC(=O)CCNC(=O)CN1CCN(CC(=O)O)CCN(CC(=O)O)CCN(CC(=O)O)CC1)C(C)C)C(N)=O [lutetium-177 labelled] — absorbed dose (MIRD; mouse PC-3 xenograft, kidneys; intraperitoneal, 50 MBq, with PA): 7.6 Gy
COc1ccc(/C=C/c2ccc(-c3ccc(C)cn3)nc2)cc1 — fluorescence quantum yield (EtOH; added: quinine bisulfate reference): 0.35
Cc1cccc(CSc2nc(N)c(C#N)c(-c3cccc(O[11CH3])c3)c2C#N)n1 — parent compound fraction (radio-HPLC; rat, plasma; 15 min): ~23%
CC(C)NC(=O)NC1CC=C(c2cc3c(Nc4cc5ncsc5cc4F)ncnc3s2)CC1 (racemic) — intrinsic clearance (human liver microsomes; 1 µM): < 12 mL/min/g protein
O=C1c2ccc3c4ccc5c6c(ccc(c7ccc(c2c37)C(=O)N1CCN1CCCCC1)c64)C(=O)N(CCN1CCCCC1)C5=O — aggregation onset time (buffer 10 mM; 40 µM, pH 7): > 12 h
CC[C@H](C)[C@H](NC(=O)[C@H](CCCCN)NC(=O)[C@H](CS)NC(=O)[C@H](C)NC(=O)[C@H](CC(N)=O)NC(=O)[C@H](CCCNC(=N)N)NC(=O)[C@H](CCCNC(=N)N)NC(=O)[C@H](CC(N)=O)NC(=O)[C@H](CCCNC(=N)N)NC(=O)[C@H](CCCNC(=N)N)NC(=O)[C@H](C)NC(=O)[C@H](CS)NC(=O)[C@H](CO)NC(=O)[C@@H](NC(=O)[C@@H](NC(=O)[C@H](CS)NC(=O)[C@H](CCCCN)NC(=O)[C@@H](N)CCCNC(=N)N)C(C)C)[C@@H](C)CC)C(=O)N[C@@H](CC(C)C)C(=O)N[C@@H](CS)C(=O)N[C@@H](CC(N)=O)C(=O)O — single disulfide form (LC-MS; PBS; 0.1 mg/mL): 19%
Oc1ccc2ccccc2c1/N=N/c1ccc(/N=N/c2ccccc2)cc1 — MRT(0-inf) (Sprague-Dawley rats both sexes, whole blood; oral, 50 mg/kg): 3.45 h

Some of these lines once more:
CC(C)NC(=O)NC1CC=C(c2cc3c(Nc4cc5ncsc5cc4F)ncnc3s2)CC1 (racemic) — intrinsic clearance (human liver microsomes; 1 µM): < 12 mL/min/g protein
O=C1c2ccc3c4ccc5c6c(ccc(c7ccc(c2c37)C(=O)N1CCN1CCCCC1)c64)C(=O)N(CCN1CCCCC1)C5=O — aggregation onset time (buffer 10 mM; 40 µM, pH 7): > 12 h
O=C(O)C1CN(Cc2ccc(-c3noc(-c4ccc(OCC[18F])c(C(F)(F)F)c4)n3)cc2)C1 — tracer uptake (rat, pancreas; intravenous, 5 min): 0.755 %ID/g
COc1ccc(/C=C/c2ccc(-c3ccc(C)cn3)nc2)cc1 — fluorescence quantum yield (EtOH; added: quinine bisulfate reference): 0.35
